{"data": "Measured values pooled from the literature", "note": "Compare with care: the assays were run in different laboratories. ± gives the spread as reported."}
{"Structure (SMILES)": "CC(C)C[C@@H]1NC(=O)[C@H](C(C)C)NC(=O)[C@H](CO)NC(=O)CNC(=O)CNC(=O)[C@H](CCCNC(=N)N)NC(=O)[C@@H]2CCCN2C(=O)[C@@H](NC(=O)CC[C@H](NC(=O)c2ccc(N(C)Cc3cnc4nc(N)nc(N)c4n3)cc2)C(=O)O)C(C)(C)SSC[C@@H](C(=O)O)NC(=O)CNC(=O)[C@H]([C@@H](C)O)NC(=O)[C@H](C(C)C)NC1=O", "test": "chemical stability", "test system": "carbonate buffer", "setting": "100 µM, pH 10.0, 70 °C", "quantity": "half-life", "value": "30.1 h"}
{"Structure (SMILES)": "N=C(N)NCCC[C@@H]1NC(=O)[C@H](CCCCNC(=O)CC[C@H](NC(=O)CCOCCOCCOCCOCCNC(=O)CN2CCN(CC(=O)O)CCN(CC(=O)O)CCN(CC(=O)O)CC2)C(=O)NCCCC[C@@H]2NC(=O)[C@@H](Cc3ccccc3)NC(=O)[C@H](CC(=O)O)NC(=O)CNC(=O)[C@H](CCCNC(=N)N)NC2=O)NC(=O)[C@@H](Cc2ccccc2)NC(=O)[C@H](CC(=O)O)NC(=O)CNC1=O [indium-111 labelled]", "test system": "female athymic nude mice, eyes", "setting": "intravenous, 3 µCi, 1 h, U-87 MG glioma xenograft", "quantity": "tissue uptake", "value": "0.82 ± 0.27 %ID/g"}
{"Structure (SMILES)": "C[C@@H](O)[C@@H]1NC(=O)[C@H](CCCCN)NC(=O)[C@@H](Cc2c[nH]c3ccccc23)NC(=O)[C@H](Cc2ccc(O)cc2)NC(=O)[C@@H](NC(=O)[C@@H](Cc2ccccc2)NC(=O)c2ccc(C[C@H]3CN(CC(=O)O)CCN(CC(=O)O)CCN(CC(=O)O)CCN3CC(=O)O)cc2)CSSC[C@@H](C(=O)N[C@H](CO)[C@@H](C)O)NC1=O [gallium-67 labelled]", "test": "radio-TLC", "test system": "mouse plasma", "setting": "24 h, 37 °C, 67Ga-labelled", "quantity": "remaining intact", "value": "96.6 ± 1%"}
{"Structure (SMILES)": "CSCC[C@H](NC(=O)[C@H](CC(C)C)NC(=O)[C@H](Cc1c[nH]cn1)NC(=O)CNC(=O)[C@@H](NC(=O)[C@H](C)NC(=O)[C@H](Cc1c[nH]c2ccccc12)NC(=O)[C@H](CCC(N)=O)NC(=O)CCCCCNC(=O)CNC(=O)CNC(=O)CNC(=O)CSC(C)=O)C(C)C)C(N)=O [technetium-99m labelled]", "test system": "nude mouse, PC-3 xenograft, bone", "setting": "90 min, with: excess unlabelled conjugate", "quantity": "tissue uptake", "value": "0.29 ± 0.02 %ID/g"}
{"Structure (SMILES)": "C[C@@H](O)[C@H](NC(=O)[C@@H]1CSSC[C@H](NC(=O)[C@@H](Cc2ccccc2)NC(=O)CN2CCN(CC(N)=O)CCN(CC(N)=O)CCN(CC(N)=O)CC2)C(=O)N[C@@H](Cc2ccc(O)cc2)C(=O)N[C@H](Cc2c[nH]c3ccccc23)C(=O)N[C@@H](CCCCN)C(=O)N[C@@H]([C@@H](C)O)C(=O)N1)C(=O)O [lead-212 labelled]", "test system": "CD-1 mice", "setting": "1 x 40 µCi, nine days", "quantity": "mortality", "value": "~40%"}
{"Structure (SMILES)": "CCCC[C@H](NC(=O)CCCCCCCNC(=O)c1ccc(NN)nc1)C(=O)N[C@H]1CC(=O)NCCCC[C@@H](C(N)=O)NC(=O)[C@H](Cc2c[nH]c3ccccc23)NC(=O)[C@H](CCCNC(=N)N)NC(=O)[C@@H](Cc2ccccc2)NC(=O)[C@H](Cc2c[nH]cn2)NC1=O [technetium-99m labelled]", "test system": "C57 mouse, B16/F1 melanoma, muscle", "setting": "intravenous, 24 h", "quantity": "uptake", "value": "0.02 ± 0.01 %ID/g"}
{"Structure (SMILES)": "N=C(N)NCCC[C@@H]1NC(=O)[C@H](CCCCNC(=O)CNC(=O)CNC(=O)CNC(=O)CC[C@H](NC(=O)c2ccc(NN=Cc3ccccc3S(=O)(=O)O)nc2)C(=O)NCC(=O)NCC(=O)NCC(=O)NCCCC[C@@H]2NC(=O)[C@@H](Cc3ccccc3)NC(=O)[C@H](CC(=O)O)NC(=O)CNC(=O)[C@H](CCCNC(=N)N)NC2=O)NC(=O)[C@@H](Cc2ccccc2)NC(=O)[C@H](CC(=O)O)NC(=O)CNC1=O [technetium-99m labelled]", "test": "shake-flask", "test system": "n-octanol/phosphate buffer", "setting": "pH 7.4", "quantity": "log P", "value": "-4.3 ± 0.03"}
{"Structure (SMILES)": "CC(C)C[C@H](NC(=O)[C@H](C)N)C(=O)N[C@@H](CC(C)C)C(=O)N[C@@H](C)C(=O)N[C@@H](CC(N)=O)C(=O)N[C@@H](Cc1c[nH]cn1)C(=O)N[C@@H](CCC(=O)O)C(=O)N[C@@H](CCC(=O)O)C(=O)N[C@@H](CC(C)C)C(=O)N[C@@H](Cc1ccccc1)C(=O)N[C@@H](CCC(N)=O)C(=O)N[C@H](C(=O)NCC(=O)NCC(=O)NCC(=O)N[C@@H](CO)C(=O)N[C@@H](CSC1CC(=O)N(CCNC(=O)CCCCCN2C(=CC=C3CCCC(C=CC4=[N+](CCCCS(=O)(=O)[O-])c5ccc(S(=O)(=O)O)cc5C4(C)C)=C3Oc3ccc(S(=O)(=O)O)cc3)C(C)(C)c3cc(S(=O)(=O)O)ccc32)C1=O)C(=O)O)[C@@H](C)O (stereo partly shown)", "test": "RP-HPLC", "test system": "mouse serum", "setting": "15 µM, 37 °C", "quantity": "half-life", "value": "3.5 h"}
{"Structure (SMILES)": "Cc1ncsc1-c1ccc(CNC(=O)[C@@H]2C[C@@H](OC(=O)OCCSSCCn3cc(CCCC(=O)N[C@@H](Cc4ccc(O)cc4)C(=O)N[C@@H](CCCNC(=N)N)C(=O)N[C@@H](CCCNC(=N)N)C(=O)N[C@@H](CCCNC(=N)N)C(=O)N[C@@H](CCCNC(=N)N)C(=O)N[C@@H](CCCNC(=N)N)C(=O)N[C@@H](CCCNC(=N)N)C(=O)N[C@@H](CCCNC(=N)N)C(=O)N[C@@H](CCCNC(=N)N)C(=O)N[C@@H](CCCNC(=N)N)C(N)=O)nn3)CN2C(=O)[C@@H](NC(=O)COCCOCCOCCNC(=O)C[C@@H]2N=C(c3ccc(Cl)cc3)c3c(sc(C)c3C)-n3c(C)nnc32)C(C)(C)C)cc1", "test": "UHPLC", "test system": "PBS", "setting": "100 nM, 0 h, 37 °C, with: 5 mM glutathione", "how to read": "baseline: total peak area", "quantity": "remaining intact compound", "value": "100%"}
{"Structure (SMILES)": "CN1/C(=C/C=C2\\CCCC(/C=C/C3=[N+](C)c4ccccc4C3(C)C)=C2SCCC(=O)N[C@@H](Cc2ccccc2)C(=O)N[C@@H](Cc2ccccc2)C(=O)N[C@@H](CCCCNC(=O)CCC(=O)O)C(=O)N[C@@H](CCCCNC(=O)CCCC[C@@H]2SC[C@@H]3NC(=O)N[C@@H]32)C(=O)O)C(C)(C)c2ccccc21", "test": "fluorescence imaging", "test system": "BALB/c nude mice with 4T1 tumour", "setting": "intravenous, 0.05 µmol/kg", "quantity": "time to plateau tumour signal", "value": "12 h"}
{"Structure (SMILES)": "N=C(N)NCCC[C@@H]1NC(=O)[C@H](CCCCNC(=O)CCOCCOCCOCCOCCNC(=O)CN2CCN(CC(=O)O)CCN(CC(=O)O)CCN(CC(=O)O)CC2)NC(=O)[C@@H](Cc2ccccc2)NC(=O)[C@H](CC(=O)O)NC(=O)CNC1=O [indium-111 labelled]", "test system": "octanol/water", "quantity": "log P", "value": "-3.48 ± 0.12"}
{"Structure (SMILES)": "CCCC[C@H](NC(=O)CNC(=O)CNC(=O)CNC(=O)c1ccc(NN)nc1)C(=O)N[C@H]1CC(=O)NCCCC[C@@H](C(N)=O)NC(=O)[C@H](Cc2c[nH]c3ccccc23)NC(=O)[C@H](CCCNC(=N)N)NC(=O)[C@@H](Cc2ccccc2)NC(=O)[C@H](Cc2c[nH]cn2)NC1=O [technetium-99m labelled]", "test system": "C57 mouse, B16/F1 melanoma", "setting": "2 h", "how to read": "baseline: tumour over skin", "quantity": "uptake ratio", "value": 31.8}
{"Structure (SMILES)": "N=C(N)NCCC[C@@H]1NC(=O)[C@H](CCCCNC(=O)CC[C@H](NC(=O)CCOCCOCCOCCOCCNC(=O)CC[C@H](NC(=O)CN2CCN(CC(=O)O)CCN(CC(=O)O)CCN(CC(=O)O)CC2)C(=O)NCCOCCOCCOCCOCCC(=O)N[C@@H](CCC(=O)NCCCC[C@@H]2NC(=O)[C@@H](Cc3ccccc3)NC(=O)[C@H](CC(=O)O)NC(=O)CNC(=O)[C@H](CCCNC(=N)N)NC2=O)C(=O)NCCCC[C@@H]2NC(=O)[C@@H](Cc3ccccc3)NC(=O)[C@H](CC(=O)O)NC(=O)CNC(=O)[C@H](CCCNC(=N)N)NC2=O)C(=O)NCCCC[C@@H]2NC(=O)[C@@H](Cc3ccccc3)NC(=O)[C@H](CC(=O)O)NC(=O)CNC(=O)[C@H](CCCNC(=N)N)NC2=O)NC(=O)[C@@H](Cc2ccccc2)NC(=O)[C@H](CC(=O)O)NC(=O)CNC1=O [indium-111 labelled]", "test system": "athymic nude mice, female, U-87 MG glioma xenograft, tumour and blood", "setting": "intravenous, 0.5 h", "how to read": "baseline: tumour over blood", "quantity": "tumour to tissue ratio", "value": "11.6 ± 5.36"}
{"Structure (SMILES)": "C[C@@H]1NC(=O)[C@H](CCC(=O)O)NC(=O)CNC(=O)[C@H](CC(=O)O)NC(=O)CNC(=O)[C@H](CCCCNC(=O)CCCCCNC(=O)[C@H](CS)NC(=O)CCCCCNC(=O)CN2CCN(CC(=O)O)CCN(CC(=O)O)CCN(CC(=O)O)CC2)NC(=O)[C@@H](Cc2ccc(O)cc2)NC1=O [gallium-68 labelled]", "test system": "mouse serum", "setting": "1.5 h, 37 °C, 90% serum", "quantity": "intact tracer", "value": "> 90%"}
{"Structure (SMILES)": "CCCC[C@H](NC(=O)CNC(=O)CNC(=O)c1ccc(NN)nc1)C(=O)N[C@H]1CC(=O)NCCCC[C@@H](C(N)=O)NC(=O)[C@H](Cc2c[nH]c3ccccc23)NC(=O)[C@H](CCCNC(=N)N)NC(=O)[C@@H](Cc2ccccc2)NC(=O)[C@H](Cc2c[nH]cn2)NC1=O [technetium-99m labelled]", "test system": "C57 mouse, B16/F1 melanoma", "setting": "2 h, with: NDP-MSH blockade", "how to read": "baseline: tumour over skin", "quantity": "uptake ratio", "value": 1.32}
{"Structure (SMILES)": "N=C(N)NCCC[C@@H]1NC(=O)[C@H](CCCCNC(=O)CCOCCOCCOCCOCCNC(=O)CC[C@H](NC(=O)CCOCCOCCOCCOCCNC(=O)CC[C@H](NC(=O)CN2CCN(CC(=O)O)CCN(CC(=O)O)CCN(CC(=O)O)CC2)C(=O)NCCOCCOCCOCCOCCC(=O)N[C@@H](CCC(=O)NCCOCCOCCOCCOCCC(=O)NCCCC[C@@H]2NC(=O)[C@@H](Cc3ccccc3)NC(=O)[C@H](CC(=O)O)NC(=O)CNC(=O)[C@H](CCCNC(=N)N)NC2=O)C(=O)NCCOCCOCCOCCOCCC(=O)NCCCC[C@@H]2NC(=O)[C@@H](Cc3ccccc3)NC(=O)[C@H](CC(=O)O)NC(=O)CNC(=O)[C@H](CCCNC(=N)N)NC2=O)C(=O)NCCOCCOCCOCCOCCC(=O)NCCCC[C@@H]2NC(=O)[C@@H](Cc3ccccc3)NC(=O)[C@H](CC(=O)O)NC(=O)CNC(=O)[C@H](CCCNC(=N)N)NC2=O)NC(=O)[C@@H](Cc2ccccc2)NC(=O)[C@H](CC(=O)O)NC(=O)CNC1=O [indium-111 labelled]", "test system": "female athymic nude mice, kidney", "setting": "intravenous, 3 µCi, 1 h, U-87 MG glioma xenograft", "quantity": "tissue uptake", "value": "7.21 ± 0.79 %ID/g"}
